Published values collected from several papers.
Every numbered part comes from another study and shows a few of its results, in no order. Substitutions count along the parent as printed.

Series 1
Organism: Saccharomyces cerevisiae
Observed: peptide binding
Technique: yeast competitive growth sequencing
Form: peptide
Strain: cyclin-Cln2 fusion strain
Concentration: concentration not given
Setting: Cln2 background subtracted
Reading: direction not given
| Sequence | binding score |
| --- | --- |
| LFVPQRKLEVSTEDVH | -0.0542 |
| RKLDLEGIGR | 1.65 |
| PKNAKRNLSSEFAN | 0.835 |
| PHKTFRKLRLFDTPHT | -0.41 |
| IPDRSTKPVVFSPT | -0.527 |
| APPRKALFTYPKG | 0.586 |
| ALLRRLQDVANDRGSH | 0.945 |
| QDYERRLLRQIVIQNE | 0.178 |
| KRCATPVIIDEILPSK | 0.336 |
| KLLPRKLQFFCDP | 0.852 |
| EDLLKELQKQLEE | -0.38 |

Series 2
Target: RING finger protein unkempt homolog, zinc fingers 1-6, GST-SBP tag (UNK, Homo sapiens, UniProt Q9C0B0, residues 30-357)
Technique: RNA Bind-n-Seq
Form: RNA
Medium: in vitro
Concentration: not given
Setting: RNA with constant flanks, ends assumed
Relative to: input RNA pool
Reading: higher = stronger binding
Shared flanks, not repeated: GGGAGUUCUACAGUCCGACGAUC … CAACAGAGGAUUGAGCAUCA
Target sequence (chain): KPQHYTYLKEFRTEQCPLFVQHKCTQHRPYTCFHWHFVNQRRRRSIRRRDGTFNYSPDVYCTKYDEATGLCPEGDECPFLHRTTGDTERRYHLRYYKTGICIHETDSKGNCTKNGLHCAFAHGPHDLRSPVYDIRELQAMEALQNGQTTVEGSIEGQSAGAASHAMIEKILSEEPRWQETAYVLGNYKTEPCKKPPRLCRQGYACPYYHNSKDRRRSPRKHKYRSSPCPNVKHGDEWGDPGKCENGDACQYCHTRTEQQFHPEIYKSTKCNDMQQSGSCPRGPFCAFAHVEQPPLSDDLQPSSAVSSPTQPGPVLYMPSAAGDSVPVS
| Sequence | bound/input enrichment [ratio] |
| --- | --- |
| AAAGAUAGGCUCUAUUGUGAAAAGGAAAAUGACCCCAAACGACGCUCUUGUCAGACUGCAUCCGUUGAAAUUUUGGAUGUAAUAGUUCGUUCUUUUGCUCCCAUUCUUCCUCACCUGGCU | 0.505 |
| GUAGCCUUAUAUGAAGAACCAGAGAAGCCCACCAGUGCUCUGGAUUUUUUAAAGCAUCACUCCGGAGCUGCUACCCCGGAAAACCCAGAAAUAGAGCUGCUUCGCCUAGAAUUGGCAGAA | 0.668 |
| CAAGCAGCUCUUGAAUUUCAUGGUGUUGCCCAAGAUUUGUCUCAGCAGUUGGAUGGCUUAUCCGGGAUGUUGUGCGUAGAUGUAGCACCAGCUGAUGGAGCAUCGAUUCAGCAAACUUUA | 0.166 |
| UCCCAUGACCAGAGGACUCUGAUCACUGGCAUGGCUUCUGGUAGCAUUGUAGCUUUUAAUACCGAUUUUAAUCGGUGGCAUUAUGAGCAUCAGAACAGAUACUGAAGAUAAAGGAAGAAC | 0.228 |
| AUCUCCUUUUAUGCUCACCUGACAUUAAUUAUCUAUCCUUGAUGAUGUGUUUAAACUGAGCCGCAGAAAACAGAGGCCACACUUUCUGGGAAAUUUUAAAGGAAGAAACCAUUUUUAAUG | 0.17 |
| UAAUUUUGGUCUGCUUAUUUUUAGAUAAAAUUGAAAGGAAUUGUAUAAAUCAAUUAACAUAUCCGCUGAGUUGUCCAACACAUGGUAUAAACGAAUUACAACAGUAAACUAUUACACAUU | 1.09 |
| AUAUACUUUUAUCAUUUAAAUGUCUUAUUUGCUGCUAUGAAUAGGAAAUAACAUUUUGUACCGCAGGCUCUGUUUUACCCUAACAUUAAAAAAUUUCACUGAUCUUUCUUUCAUUAACAG | 2.64 |
| GAGUGCUUAAGCUGCCAACAGUUAGAAGAUGCUAUUUAUUUGUGUCUGUAAGUUUGUACACCGUAAUGCCAGCCUUGUUGCUGAAUUUUUUAUUUGGGGGGAGAUGACUUUGAAUUUUGU | 1.41 |
| GAACAGAUUGUGGAUUUCUUAAAGAAGAAGCAUGAUUUUGUAGACCUUAUUAUAAAGCACACCGGAACUUCUGCUAUCAUGGAUUUGUUGCUCAGGCUCCUGACGUGUAUCGAACCUCCA | 0.53 |
| GCCAGUGCAAAGUAGCCAGAAGGCUGCCACGCCAGAGCGGCACAGAGUUCCCAAGUGUUCUCCGUUUUCGUGUCCGAGCGUCUUGGGCCGCUCUCUCCGGAGAACUGCGACCAGGAUGUG | 0.0581 |
| AAGAUAAACAGAAUAGACCAUGACCGGAGAGCGAUGGCUACUUUGCUUAGCAAGUUCCGGACCGACUUUUCUGAUAUCAUGGUUCUAGGAGAUAUCAAUACCAAACCAAAGAAAGAAAAU | 0.34 |

Series 3
Target: Ras GTPase-activating protein-binding protein 1, C-terminal RGG region (G3BP1, Homo sapiens, UniProt Q13283)
Sequence of UniProt Q13283 (whole entry, looked up): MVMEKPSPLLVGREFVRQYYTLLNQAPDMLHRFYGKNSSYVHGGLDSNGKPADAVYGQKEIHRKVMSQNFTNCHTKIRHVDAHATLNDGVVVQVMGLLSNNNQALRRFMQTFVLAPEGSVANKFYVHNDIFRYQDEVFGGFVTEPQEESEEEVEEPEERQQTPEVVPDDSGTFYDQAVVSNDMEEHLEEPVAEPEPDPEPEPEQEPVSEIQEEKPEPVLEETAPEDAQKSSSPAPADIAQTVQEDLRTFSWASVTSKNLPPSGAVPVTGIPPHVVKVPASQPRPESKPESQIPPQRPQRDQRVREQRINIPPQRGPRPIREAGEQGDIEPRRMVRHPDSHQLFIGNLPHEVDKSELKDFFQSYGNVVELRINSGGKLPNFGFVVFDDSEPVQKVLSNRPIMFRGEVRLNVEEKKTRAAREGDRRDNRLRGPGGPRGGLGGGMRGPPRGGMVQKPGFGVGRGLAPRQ
Technique: RNA Bind-n-Seq
Form: RNA
Medium: in vitro
Concentration: 1 µM
Setting: whole 134-nt RNA, ends assumed
Together with: 150 mM KCl
Relative to: input library
Reading: higher = stronger binding
Shared flanks, not repeated: GGGAGUUCUACAGUCCGACGAUC … UGGAAUUCUCGGGUGUCAAGG
| Sequence | log2 enrichment |
| --- | --- |
| AAGUCCUGUGCUACACAUCGUAUGUACCGAAUCAAAUUUAAACCCCCAAAUUUAAAAAAGUAUUAUGUUACGCCGUUCGGAUCUGCACUU | -0.664 |
| ACCAUGCAGGUGGGCAUCUUUGGGAAGUGGGGCAAGGGGGGGAUAGGGAGGGGGGUAACACUUUGAAAACAGGUGGUCCCAGGUCGUUUC | -1.15 |
| CACAGACAACACGCACCCACACAGACACAGAGGGAAGGGGUUGGGAUGGGGACAGGGUGCACAGCAAAACGGGGUAGGACCCCAGCCCCU | -0.122 |
| AGUCCUGUGCUACACAUCGUAUGUACCGAAUCGGAAAAAGGUUUUUGGUUUUUUUGGAAAGUAUUAUGUUACGCCGUUCGGAUCUGCACU | -2.32 |
| AGUCCUGUGCUACACAUCGUAUGUACCGAAUCGGGGAAAGGGGUUUGGGGUUUGGGGAAAGUAUUAUGUUACGCCGUUCGGAUCUGCACU | 3.58 |
| UGGCCCUGGUGGCAUGCGGGGAGGAAGAGGUGGCCUCAUGGAUCGUGGUGGUCCCGGUGGAAUGUUCAGAGAUGGCCGUGGUGGAGACAG | 3.29 |
| AAGUCCUGUGCUACACAUCGUAUGUACCGAAUCGGAAAAAAAGGUGGAAAAAAAGGAAAGUAUUAUGUUACGCCGUUCGGAUCUGCACUU | -2.08 |
| GUCCUGUGCUACACAUCGUAUGUACCGAAUCGGGAAAGGGUUUUUGGGUUUUUUUGGGAAAGUAUUAUGUUACGCCGUUCGGAUCUGCAC | -0.254 |
| UCAAGUCCUGUGCUACACAUCGUAUGUACCGAAUCGGUGGAAAGGUUUUUUUGGAAAGUAUUAUGUUACGCCGUUCGGAUCUGCACUUCC | -1.42 |
| UGUGCUACACAUCGUAUGUACCGAAUCGGGGAAAAAAAGGGGAAAAAAAGGGGAAAAAAAGGGAAAGUAUUAUGUUACGCCGUUCGGAUC | -0.867 |
| CUCAAGUCCUGUGCUACACAUCGUAUGUACCGAAUCGGGGUUGGGUUGGUUGGGAAAGUAUUAUGUUACGCCGUUCGGAUCUGCACUUCC | 0.18 |
| ACCAUGCAGGUGGGCAUCUUUGGGAAGUGGGGCAAGGGGGGGAUAGGGAGGGGGGUAACACUUUGGGAACAGGUGGUCCCAAGUCGUUUC | 1.44 |
| UCCUGUGCUACACAUCGUAUGUACCGAAUCGGGAAAAAAGGGAAAAAAGGGAAAAAAGGAAAGUAUUAUGUUACGCCGUUCGGAUCUGCA | -1.12 |
| UCCUCAAGUCCUGUGCUACACAUCGUAUGUACCGAAUCGGAGGGGAGGAGGAAAGUAUUAUGUUACGCCGUUCGGAUCUGCACUUCCAGC | -1.35 |

Series 4
Target: Sal-like protein 4, full length isoform A (SALL4, Homo sapiens, UniProt Q9UJQ4, residues 1-1053)
Sequence of UniProt Q9UJQ4 (whole entry, looked up): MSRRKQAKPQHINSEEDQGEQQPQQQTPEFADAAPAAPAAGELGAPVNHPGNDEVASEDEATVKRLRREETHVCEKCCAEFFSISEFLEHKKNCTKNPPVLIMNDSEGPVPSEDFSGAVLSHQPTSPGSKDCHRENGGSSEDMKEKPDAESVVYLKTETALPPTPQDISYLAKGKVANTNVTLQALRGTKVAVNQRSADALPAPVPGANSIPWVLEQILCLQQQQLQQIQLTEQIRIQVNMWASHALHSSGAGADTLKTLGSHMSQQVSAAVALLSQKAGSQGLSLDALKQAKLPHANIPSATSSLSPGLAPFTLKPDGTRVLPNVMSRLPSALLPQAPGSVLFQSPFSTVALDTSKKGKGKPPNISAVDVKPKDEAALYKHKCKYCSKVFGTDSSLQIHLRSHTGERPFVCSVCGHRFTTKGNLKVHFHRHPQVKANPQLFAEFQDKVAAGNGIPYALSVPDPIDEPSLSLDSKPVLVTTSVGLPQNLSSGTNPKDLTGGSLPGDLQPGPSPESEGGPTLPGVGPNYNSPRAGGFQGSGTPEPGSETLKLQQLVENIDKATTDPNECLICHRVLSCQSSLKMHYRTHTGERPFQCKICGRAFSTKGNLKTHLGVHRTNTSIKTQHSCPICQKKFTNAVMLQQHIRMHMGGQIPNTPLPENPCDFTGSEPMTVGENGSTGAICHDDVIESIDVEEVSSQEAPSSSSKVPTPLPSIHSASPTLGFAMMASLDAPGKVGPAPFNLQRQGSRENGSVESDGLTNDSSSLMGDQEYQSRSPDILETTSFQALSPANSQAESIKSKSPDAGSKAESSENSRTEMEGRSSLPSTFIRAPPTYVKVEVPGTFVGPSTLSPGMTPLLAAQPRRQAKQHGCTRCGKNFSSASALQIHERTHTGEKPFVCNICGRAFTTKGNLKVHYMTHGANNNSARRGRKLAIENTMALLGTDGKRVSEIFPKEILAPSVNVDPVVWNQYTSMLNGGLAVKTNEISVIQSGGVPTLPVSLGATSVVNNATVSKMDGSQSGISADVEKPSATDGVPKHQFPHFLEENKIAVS
Technique: universal PBM
Form: double-stranded DNA, one strand shown
Medium: in vitro
Concentration: 600 nM
Setting: 8-mer, flanks averaged, mean of replicates
Reading: higher = stronger binding
| Sequence | E-score |
| --- | --- |
| CGCAATGC | -0.167 |
| CGTGCACA | -0.102 |
| AATTATGG | 0.41 |
| CTGGCAAA | -0.0232 |
| ATTTGACA | 0.289 |
| CAGTAGCA | -0.0365 |
| GCATTGAA | 0.078 |
| ATTCCCGG | -0.0556 |
| GAAGATTA | 0.207 |
| CGTAGGAG | -0.161 |
| CCTTTCCA | 0.0127 |
| TATCGATA | 0.153 |
| TCACTAAA | 0.157 |
| AACCAAGT | 0.0947 |
| ACCTGGCA | -0.229 |
| TATCTACA | 0.234 |
| GGATAAGA | -0.0209 |
| GTTGTCGA | -0.0783 |

Series 5
Target: ABI1, truncated, D143A, DHFR fusion (Arabidopsis thaliana)
Technique: DHFR PCA, deep sequencing
Medium: yeast
Setting: methotrexate growth selection, single substitutions
Together with: (+)-ABA 0.11 µM
Relative to: wild-type fitted maximum
Reading: higher = stronger binding
Parent: PYL1, truncated, DHFR fusion (Arabidopsis thaliana); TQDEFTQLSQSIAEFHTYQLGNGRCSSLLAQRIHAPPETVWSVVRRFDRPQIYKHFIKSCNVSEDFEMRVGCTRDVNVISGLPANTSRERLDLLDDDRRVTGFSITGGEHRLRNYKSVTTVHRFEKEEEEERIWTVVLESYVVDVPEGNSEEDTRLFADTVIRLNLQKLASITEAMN; partner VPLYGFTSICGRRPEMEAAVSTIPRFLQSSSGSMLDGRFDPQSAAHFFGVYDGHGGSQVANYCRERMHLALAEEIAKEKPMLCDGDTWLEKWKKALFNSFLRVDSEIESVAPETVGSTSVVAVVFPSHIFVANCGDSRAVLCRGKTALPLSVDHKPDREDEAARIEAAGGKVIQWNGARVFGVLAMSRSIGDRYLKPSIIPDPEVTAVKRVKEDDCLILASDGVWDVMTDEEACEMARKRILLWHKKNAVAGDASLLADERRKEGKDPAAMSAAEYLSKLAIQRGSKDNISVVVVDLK
| Variant | relative binding score [%] |
| --- | --- |
| T17M | 5.09 |
| R32Y | 18.6 |
| G107K | -5.09 |
| L164N | 0.793 |
| S42E | 36.5 |
| M68D | -0.719 |
| F5N | -0.904 |
| R24M | 13 |
| L28M | 23.6 |
| A84M | 61.1 |
| R74P | -2.71 |
| K58Q | 13.1 |
| T119P | -6.52 |
| E4K | 2.98 |
| R45M | -8.9 |
| Q51S | 1.37 |
| S150T | 51.3 |

Some of these lines once more (series 2):
| Sequence | bound/input enrichment [ratio] |
| --- | --- |
| AAAGAUAGGCUCUAUUGUGAAAAGGAAAAUGACCCCAAACGACGCUCUUGUCAGACUGCAUCCGUUGAAAUUUUGGAUGUAAUAGUUCGUUCUUUUGCUCCCAUUCUUCCUCACCUGGCU | 0.505 |
| GUAGCCUUAUAUGAAGAACCAGAGAAGCCCACCAGUGCUCUGGAUUUUUUAAAGCAUCACUCCGGAGCUGCUACCCCGGAAAACCCAGAAAUAGAGCUGCUUCGCCUAGAAUUGGCAGAA | 0.668 |
| CAAGCAGCUCUUGAAUUUCAUGGUGUUGCCCAAGAUUUGUCUCAGCAGUUGGAUGGCUUAUCCGGGAUGUUGUGCGUAGAUGUAGCACCAGCUGAUGGAGCAUCGAUUCAGCAAACUUUA | 0.166 |
| UCCCAUGACCAGAGGACUCUGAUCACUGGCAUGGCUUCUGGUAGCAUUGUAGCUUUUAAUACCGAUUUUAAUCGGUGGCAUUAUGAGCAUCAGAACAGAUACUGAAGAUAAAGGAAGAAC | 0.228 |
| AUCUCCUUUUAUGCUCACCUGACAUUAAUUAUCUAUCCUUGAUGAUGUGUUUAAACUGAGCCGCAGAAAACAGAGGCCACACUUUCUGGGAAAUUUUAAAGGAAGAAACCAUUUUUAAUG | 0.17 |
| UAAUUUUGGUCUGCUUAUUUUUAGAUAAAAUUGAAAGGAAUUGUAUAAAUCAAUUAACAUAUCCGCUGAGUUGUCCAACACAUGGUAUAAACGAAUUACAACAGUAAACUAUUACACAUU | 1.09 |
| AUAUACUUUUAUCAUUUAAAUGUCUUAUUUGCUGCUAUGAAUAGGAAAUAACAUUUUGUACCGCAGGCUCUGUUUUACCCUAACAUUAAAAAAUUUCACUGAUCUUUCUUUCAUUAACAG | 2.64 |
| GAGUGCUUAAGCUGCCAACAGUUAGAAGAUGCUAUUUAUUUGUGUCUGUAAGUUUGUACACCGUAAUGCCAGCCUUGUUGCUGAAUUUUUUAUUUGGGGGGAGAUGACUUUGAAUUUUGU | 1.41 |
| GAACAGAUUGUGGAUUUCUUAAAGAAGAAGCAUGAUUUUGUAGACCUUAUUAUAAAGCACACCGGAACUUCUGCUAUCAUGGAUUUGUUGCUCAGGCUCCUGACGUGUAUCGAACCUCCA | 0.53 |
| GCCAGUGCAAAGUAGCCAGAAGGCUGCCACGCCAGAGCGGCACAGAGUUCCCAAGUGUUCUCCGUUUUCGUGUCCGAGCGUCUUGGGCCGCUCUCUCCGGAGAACUGCGACCAGGAUGUG | 0.0581 |
| AAGAUAAACAGAAUAGACCAUGACCGGAGAGCGAUGGCUACUUUGCUUAGCAAGUUCCGGACCGACUUUUCUGAUAUCAUGGUUCUAGGAGAUAUCAAUACCAAACCAAAGAAAGAAAAU | 0.34 |
